# Literature values that unrelated publications cite.
# Protocols differ between the studies behind these lines. ± marks the error that the study gave.
Compound,test,system,setting,how to read,measurement,value
Cc1ccc(CN)cc1,,,"amine, free unbound form",,pKa,9.5
O=C(OC(C(F)(F)F)C(F)(F)F)N1CCC(C(O)(c2ccc3c(c2)OCO3)c2ccc3c(c2)OCO3)CC1,,,,,logD,4.6
O=C1NC(=O)/C(=C/c2ccc3ncnc(N4CCC(F)CC4)c3n2)S1,,mouse,,,oral bioavailability,100%
CN1CCN(c2ccc3[nH]c(-c4ccc5[nH]c(-c6ccc(OCCCCNC(=O)c7ccc8c(c7)C7(OC8=O)c8ccc(N(C)C)cc8C(C)(C)c8cc(N(C)C)ccc87)cc6)nc5c4)nc3c2)CC1,,PBS,"2 µM, with: 30 µM hairpin DNA",,fluorescence quantum yield,0.282 ± 0.005
COC1=CC(c2ccc[nH]2)=NC1=CNC1CCCCCC1.Cl,metabolic stability,mouse liver microsomes,,,half-life,5.2 min
CCN(CC)CCNC(=O)c1c(C)[nH]c(/C=C2\C(=O)Nc3ccc(F)cc32)c1C,,human,concentration not given,,Cmax,181 nM
CC1(N(CC(=O)O)CC(=O)O)CN(CC(=O)O)CCN(CC(=O)O)C1,"pH-potentiometry, item: logK3H",0.1 M KCl,25 °C,,protonation constant (log),3.78
FC(F)(F)c1cc2nc(c1)CNCCNCCNC2.[Cu+2],cyclic voltammetry,DMF,scan rate 100 mV/s,reference: Fc/Fc+,anodic peak potential,-823 mV
COc1ccc(Nc2nc(Nc3ccc(OCC[18F])cc3)ncc2Br)cc1,,"S180 tumour-bearing mice, lung","intravenous, 60 min",,tissue uptake,4.23 ± 0.57 %ID/g
O=C(O)c1cc2cc(O)ccc2n1Cc1ccc(Cl)c(C(F)(F)F)c1,,,,,pKa,3.7
CN1CCN(c2ccc3[nH]c(-c4ccc5[nH]c(-c6ccc(OCCCCNC(=O)c7ccc8c(c7)C(=O)OC87c8ccc(N(C)C)cc8[Si](C)(C)c8cc(N(C)C)ccc87)cc6)nc5c4)nc3c2)CC1,,PBS with 0.1% SDS,,,fluorescence quantum yield,0.538 ± 0.004
CC(C)OC(=O)c1ccc(O)cc1,octanol-water,,,,logP,2.81
CNc1nc(N)nc2c1ncn2[C@@H]1O[C@H](CO)[C@@H](O)[C@@]1(C)F,,plasma,,,plasma half-life,~19 h
CN1CCN(c2ccc3[nH]c(-c4ccc5[nH]c(-c6ccc(OCCCCNC(=O)c7ccc8c(c7)C7(OC8=O)c8ccc(N(C)C)cc8[Si](C)(C)c8cc(N(C)C)ccc87)cc6)nc5c4)nc3c2)CC1,,PBS,"2 µM, with: 30 µM hairpin DNA",,fluorescence quantum yield,0.156 ± 0.002
NCCN1CCN(CC(=O)O)Cc2cccc(n2)CN(CC(=O)O)CC1,,,0.15 M NaCl,,sum of log KiH,29.1
Ic1cc2nc(c1)CNCCNCCNC2.[Cu+2],cyclic voltammetry,DMF,scan rate 100 mV/s,reference: Fc/Fc+,anodic peak potential,-811 mV
c1ccc2cc3c(ccc4ccccc43)cc2c1,,,experimental mean,,log Kow,5.6
CCCCCCCCCOC(=O)c1ccc(O)cc1,octanol-water,,,,logP,5.66
COc1ccc2c(c1)CN(C(=O)CCN1CCC(Cc3ccccc3)CC1)CCS2,,dog sterile pericarditis AF model,dose not given,,unbound plasma concentration,130 nM
Cc1ccc2c(c1)nc(CCN1C(=O)c3cccc4cccc(c34)C1=O)n2-c1ccncc1,,Sprague-Dawley rat,"oral, 10 mg/kg",,MRT(0-t),1.5 h
CN(C)CCN1CCN(CCCN2c3ccccc3Sc3ccc(C(F)(F)F)cc32)CC1,,,,,logP,4.84
Clc1cc2nc(c1)CNCCNCCNC2.[Cu+2],cyclic voltammetry,DMF,scan rate 100 mV/s,,peak separation ΔE,101 mV
Oc1cccc(-c2cccc(O)n2)n1.[Cl-].[Cl-].[Ru+2].c1cnc2c(c1)ccc1cccnc12.c1cnc2c(c1)ccc1cccnc12,,,pH 7.4,,log D octanol/water,1.6
O=C(O)CCCCC1(N(CC(=O)O)CC(=O)O)CN(CC(=O)O)CCN(CC(=O)O)C1,"pH-potentiometry, item: logK1H",0.15 M NaCl,25 °C,,protonation constant (log),10.5
COc1cc2nc(c1)CNCCNCCNC2.[Cu+2],cyclic voltammetry,DMF,scan rate 100 mV/s,,peak separation ΔE,165 mV
O=C(O)CN1CCNCCNCCN(CC(=O)O)CC1,,0.1 M KCl,,,log KH2,9.58
CCC(C)OC(=O)c1ccc(O)cc1 (stereo not drawn),octanol-water,,,,logP,3.2
CN1CCN(c2ccc3[nH]c(-c4ccc5[nH]c(-c6ccc(OCCCCNC(=O)c7ccc8c(c7)C(=O)OC87c8ccc(N(C)C)cc8C(C)(C)c8cc(N(C)C)ccc87)cc6)nc5c4)nc3c2)CC1,,PBS,"2 µM, with: 30 µM hairpin DNA",,fluorescence quantum yield,0.432 ± 0.001
CCCCCCCCCCCCOC(=O)c1ccc(O)cc1,,,pH 7.4,,logD,6.23
C/C(N)=N/C(=N\S(=O)(=O)c1ccc(C(F)(F)F)cc1)N1C[C@H](c2ccccc2)C(c2ccc(Cl)cc2)=N1,,wild-type mouse,,,brain to plasma ratio,< 3%
COc1ccc(CNc2nc([C@H]3CC[C@H](C(=O)O)CC3)nc3sc4ccccc4c23)cc1Cl,,mouse,,,oral bioavailability,< 5%
CCn1c(=O)c(-c2cc(NC(=O)Nc3ccccc3)c(F)cc2Br)cc2cnc(N)cc21,,"patients, plasma","150 mg once daily, median",,Cmax,1250 ng/mL
C[C@@H](Nc1c(-c2c(F)cc(C#N)cc2F)c(Cl)nc2ncnn12)C(C)(C)C,,wild-type mice,"intraperitoneal, 16 h, total concentrations",,brain/plasma AUC ratio,1
O=C(O)CN1CCN(CC(=O)O)CCN(CC(=O)O)CC1,protonation constant,,0.1 M Me4NCl,,log KH3,3.22
COc1ccc2ncc(F)c(C[C@H](O)[C@H]3OC[C@H](NCc4ccc5c(n4)NC(=O)CO5)CO3)c2c1,,mouse liver microsomes,,,metabolic half-life,0.755 h
COc1cc(-c2nc3ccccc3s2)cc(CN2CCNCCN(Cc3cc(-c4nc5ccccc5s4)cc(OC)c3O)CC2)c1O,,,68Ga(III) complex,,logD,1.24
Cc1cc(NC(=O)Cn2nnc(-c3cccc(F)c3)n2)n(C2CCCCC2)n1,,"mouse, mouse plasma",,,plasma stability,unstable
[Cu+2].c1cc2nc(c1)CNCCNCCNC2,cyclic voltammetry,DMF,scan rate 100 mV/s,reference: Fc/Fc+,half-wave potential,-948 mV
NC[C@H](N)C(=O)O,,,,,pKa,9.57

# Repeated from above:
Compound,test,system,setting,how to read,measurement,value
CN1CCN(c2ccc3[nH]c(-c4ccc5[nH]c(-c6ccc(OCCCCNC(=O)c7ccc8c(c7)C(=O)OC87c8ccc(N(C)C)cc8[Si](C)(C)c8cc(N(C)C)ccc87)cc6)nc5c4)nc3c2)CC1,,PBS with 0.1% SDS,,,fluorescence quantum yield,0.538 ± 0.004
CC(C)OC(=O)c1ccc(O)cc1,octanol-water,,,,logP,2.81
CNc1nc(N)nc2c1ncn2[C@@H]1O[C@H](CO)[C@@H](O)[C@@]1(C)F,,plasma,,,plasma half-life,~19 h
